Measured values collected from several papers.
Each line is one published result; not all experiments were run side by side. “And” joins repeats or separate records; there may be more than shown.
Target: Calcium/calmodulin-dependent protein kinase type II subunit gamma (CAMK2G, Homo sapiens, UniProt Q13555)

C=CC(=O)Nc1cccc(-c2cnc3[nH]cc(C(=O)NC(C)(C)C)c3n2)c1
inhibition (kinase activity; 0.1 µM): -1% and 0%

Cc1cccc(O[C@H]2CCC[C@@H](C(C)CNCc3ccncc3)C2)c1 (relative stereo)
inhibition (cell-free assay; 10 µM): -14%

CNC(=O)C1CCN(c2cc(C)c(F)cc2NC(=O)c2ccc(-c3cc(O)ccc3C)c(C)c2)CC1
remaining binding (binding, competition with immobilised ligand; 1 µM): 93%

C=CC(=O)N1CCCC(n2c(=O)c3ncccc3n(Cc3ccc(Oc4ccccc4)cc3)c2=O)C1 (stereo not drawn)
remaining binding (cell-free assay, competition with immobilised ligand; 1 µM): 100%

Nc1ncc2c(n1)-c1c([nH]c3ccc(C4=CCOCC4)cc13)CCC2
remaining binding (binding, competition with immobilised ligand; 1 µM): 100%

Cc1cnc2nc1Nc1cccc(c1)COC/C=C/COCc1cc(ccc1OCCN1CCOCC1)N2
remaining binding (binding; 0.1 µM): 100%

CS(=O)(=O)Nc1cccc(-c2csc3cnc(Nc4ccc(N5CCN(CCCCCOc6cccc7c6C(=O)N(C6CCC(=O)NC6=O)C7=O)CC5)cc4)nc23)c1 (stereo not drawn)
inhibition (probe labelling, inhibitor, KiNativ chemoproteomics; MOLT-4; 1 µM): -4.27%

Nc1ncc(-c2cc(-c3cnn(CC(F)(F)F)c3)ncc2F)nc1C(=O)NC1CNCC(F)C1 (stereo not drawn)
remaining activity (enzyme activity; 1 µM; relative to: DMSO control): 107%

NC(=O)C[C@H]1CCc2sc3ncnc(O[C@H]4CC[C@H](N5CCOCC5)CC4)c3c21
inhibition (enzyme activity, inhibitor; 10 µM): -5%

C=CC(=O)N1Cc2nc(-c3cc(-c4cc(Cl)cnc4Cl)c(F)cc3F)n(-c3ccncn3)c2C1
inhibition (cell-free assay; 1 µM): 4.8%

COc1cc(Nc2nccc(-c3cnn4nc(OC)ccc34)n2)cc(C(F)(F)F)c1
remaining binding (binding, competition with immobilised ligand; 1 µM): 100%

COc1ccc(NC(=O)Nc2ccc3c(c2)C(=O)N(C(C)CO)CC(C)C(CN(C)Cc2ccc4c(c2)OCO4)O3)cc1 (stereo not drawn)
remaining activity (kinase activity, KinaseProfiler; 0.03 µM, species human; relative to: control): 104%

Cc1ccc(-c2c(/C=C(\C#N)C(=O)NC(C)C)n(CCCO)c3ncnc(N)c23)cc1
remaining binding (cell-free assay, competition with immobilised ligand; 1 µM): 100%

CN1CC[C@@H](COc2cnc(C#N)cc2-c2ccn3nc(NC(=O)C4CC4)cc3c2)C1
inhibition (enzyme activity, inhibitor; 1 µM): 10%

CNC1C[S+]2CC[S+]3CC[S+](C1)[Ru-4]321([N]=C=S)[n]2c3ccc(OC)cc3c3c4c(c5cc(F)c[n+]1c5c32)C(=O)NC4=O (stereo not drawn)
remaining binding (KinomeScan; 0.1 µM; relative to: untreated): 84%
